Assay results of several laboratories.
Numbered parts are unrelated; each lists some results of a single study. Positions count from the first letter of the parent shown.

Series 1
Target: Sal-like protein 4, full length isoform A (SALL4, Homo sapiens, UniProt Q9UJQ4, residues 1-1053)
Sequence of UniProt Q9UJQ4 (whole entry, looked up): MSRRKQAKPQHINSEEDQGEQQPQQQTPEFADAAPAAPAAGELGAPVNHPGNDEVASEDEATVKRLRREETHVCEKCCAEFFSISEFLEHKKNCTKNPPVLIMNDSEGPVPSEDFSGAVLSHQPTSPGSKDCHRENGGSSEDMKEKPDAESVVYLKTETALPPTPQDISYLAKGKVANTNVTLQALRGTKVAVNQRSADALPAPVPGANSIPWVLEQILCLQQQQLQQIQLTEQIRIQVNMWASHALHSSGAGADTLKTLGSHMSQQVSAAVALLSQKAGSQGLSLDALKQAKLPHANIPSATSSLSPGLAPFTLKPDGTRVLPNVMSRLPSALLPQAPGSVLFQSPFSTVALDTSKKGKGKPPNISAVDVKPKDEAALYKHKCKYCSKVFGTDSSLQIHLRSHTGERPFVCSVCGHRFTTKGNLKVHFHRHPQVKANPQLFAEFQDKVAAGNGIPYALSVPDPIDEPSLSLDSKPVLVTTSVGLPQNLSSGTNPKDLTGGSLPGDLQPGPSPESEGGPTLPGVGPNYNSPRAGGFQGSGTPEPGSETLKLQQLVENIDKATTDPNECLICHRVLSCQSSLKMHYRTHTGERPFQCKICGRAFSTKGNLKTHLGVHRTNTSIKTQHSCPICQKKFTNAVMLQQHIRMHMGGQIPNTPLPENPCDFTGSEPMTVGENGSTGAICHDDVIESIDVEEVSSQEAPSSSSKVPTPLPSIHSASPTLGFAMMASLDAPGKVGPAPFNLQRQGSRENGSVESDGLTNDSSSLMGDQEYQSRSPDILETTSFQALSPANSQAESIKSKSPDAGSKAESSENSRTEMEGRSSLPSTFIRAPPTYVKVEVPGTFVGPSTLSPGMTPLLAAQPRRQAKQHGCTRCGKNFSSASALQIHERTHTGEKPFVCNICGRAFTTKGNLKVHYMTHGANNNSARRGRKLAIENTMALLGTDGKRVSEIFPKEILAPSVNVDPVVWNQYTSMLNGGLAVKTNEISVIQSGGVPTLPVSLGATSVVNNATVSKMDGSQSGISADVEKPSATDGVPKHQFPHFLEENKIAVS
Technique: universal PBM
Molecule type: double-stranded DNA, one strand shown
Matrix: in vitro
Concentration: 600 nM
Setting: 8-mer, flanks averaged, mean of replicates
Reading: higher = stronger binding
Sequence	E-score
TCAACCGA	0.0742
CCAACAGA	0.0362
AGGACTAT	0.0531
ACGGCCGG	-0.216
CACCCTCC	-0.217
AGAGTGAA	0.149
CAAGAGGA	-0.0342
AAGTAAGA	0.0876
GCTAACCA	-0.194
AGTGGGCG	-0.127
ATGAAGGC	0.117
GTAGAGGA	-0.0728
CGAACGGA	-0.123
AGAAAGAA	0.209
CATCGTCC	-0.0863
AGAAGTGC	-0.214
GGTGGCAC	-0.336
ATACTCCA	0.135
GGATACAA	0.0612
ACTGTACG	0.0569
CGGATTCC	-0.2
CGGGAGGA	-0.257
CTCAATTA	0.236
CCATTCGG	-0.0971
GATCAAGC	-0.0869

Series 2
Target: RING finger protein unkempt homolog, zinc fingers 1-6, GST-SBP tag (UNK, Homo sapiens, UniProt Q9C0B0, residues 30-357)
Sequence of UniProt Q9C0B0 (30-357, looked up): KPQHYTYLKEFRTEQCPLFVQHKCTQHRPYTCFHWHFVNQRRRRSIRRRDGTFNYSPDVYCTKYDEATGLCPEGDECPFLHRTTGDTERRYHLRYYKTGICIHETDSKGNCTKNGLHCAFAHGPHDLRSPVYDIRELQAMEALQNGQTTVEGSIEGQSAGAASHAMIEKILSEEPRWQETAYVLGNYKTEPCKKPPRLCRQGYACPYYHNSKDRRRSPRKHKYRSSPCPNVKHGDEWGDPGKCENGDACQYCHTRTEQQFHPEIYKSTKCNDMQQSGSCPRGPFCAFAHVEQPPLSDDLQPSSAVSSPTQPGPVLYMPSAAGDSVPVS
Technique: RNA Bind-n-Seq
Molecule type: RNA
Matrix: in vitro
Concentration: not given
Setting: RNA with constant flanks, ends assumed
Relative to: input RNA pool
Reading: higher = stronger binding
All sequences stand within: GGGAGUUCUACAGUCCGACGAUC … CAACAGAGGAUUGAGCAUCA
Sequence	bound/input enrichment [ratio]
UUCCCUGGAGAGUUCAUGAAGAGCUGGAGUGAUUGUCUCAACAAGGAGGGCUUUGACAAAGCCGACAUCAGCGCUGUUGUGGCAUACACCAUUGCUGUGAAAGAGGACGGUGAGCUCAAC	0.104
UUCACCGAAGUUGCAAUUGGCCCAUCCGUGCUCAAUGCUGCCAGAGAUGAUAUUAGCAAGCUCCGGAAUACACUUCGCUUUCUUUUGGGAAAUGUGGCUGAUUUCAACCCAGAAACAGAU	0.187
UGUGGUGGAGAAGGUAUCUCAUUCCUCUCCAACAUCAUCUCCACUUUGCAUCUGUCUCUCUCCGUCUGCUUUUUUUCCACCGAUGUAACAGACCUGCAGCCAGCAAGACUCCGAGGGAAG	0.113
CUCAUGCAGUUGUGGUCAAUAUUGUGGUAAUCGCUAAUUGUACUGAUUGUUUAAGUGUGCAUCCGUUGUGUCUCCCCAGCUAGAUUGUAAGCUCCUGGAGGACAGGGACCACCUCUACAA	0.189
UCCUGAAGCUUUGUGUUUGGCUGCACCUGCAUAAGCUGCUACAAAUAGAAUAAAGAAUUUCACCGCCUGUAUCUAUCAUUUAGAUGCAUGGAAAAAAAUGGGCUUUGCACACAAUGGGUU	3.93
GGGUCAGCUGCCGCCACUUCUAAUCCUCAUCAUGACAACGUCAGGUAUGGCAUUUCAAACCCCGAUGCAGCCAUUGAAGGAGCUUCAGAUGACAUGACUGUGGUAGAUGCAGCUUCAUUA	0.122
UCUUGGUCUCCAAGUCCUGCACCUUACUUUGAAACACCACUGGCUCCCUUUCCCAAUGGCCGUUUUGUGAAUGGCUUUAGUUCACCAGGAUCUUACAAAACAAAUGCUGCUGCUAUGAAU	0.756

Series 3
Target: PABPC1L2, full length, GST fusion (mouse, UniProt A0ABA7IW68)
Technique: RNAcompete
Molecule type: RNA
Matrix: in vitro
Concentration: 20 nM
Setting: 7-mer, probes averaged, single round
Relative to: mean of 7-mers
Reading: higher = stronger binding
Target sequence (chain): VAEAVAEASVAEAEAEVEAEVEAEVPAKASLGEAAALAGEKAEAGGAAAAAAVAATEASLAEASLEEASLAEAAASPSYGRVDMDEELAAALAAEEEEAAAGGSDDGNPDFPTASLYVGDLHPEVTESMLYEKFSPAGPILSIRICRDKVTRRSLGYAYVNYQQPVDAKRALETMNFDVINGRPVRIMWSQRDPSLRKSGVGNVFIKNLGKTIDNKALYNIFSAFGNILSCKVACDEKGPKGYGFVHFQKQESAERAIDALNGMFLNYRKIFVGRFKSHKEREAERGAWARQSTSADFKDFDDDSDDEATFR
Sequence	7-mer Z-score
ACAAUCU	0.0424
UCGUUGA	-0.296
UACUAGG	-0.0554
CAUCUUG	-0.344
CGUCAGU	-0.364
GGUUAUC	-0.0844
UGGUGCC	-0.05
AUACUUG	-0.0917
UUAUAGG	-0.0591
AGGGAGC	0.187
UACUUUU	-0.224
GGCCCUC	-0.242
CUUUGGC	-0.315
CACCAAU	-0.251
AGACCGU	-0.358
UCUCAGA	-0.142
UGUACCA	-0.275
GUGAACA	0.108
GACUUAC	-0.144
CUGACCU	-0.217
CGUUUUG	-0.393
UGCAGUU	-0.179
UCGCACC	-0.429
AAGGGCG	0.767
CGCUAGG	-0.197

Series 4
Target: Ras GTPase-activating protein-binding protein 1, RRM domain (G3BP1, Homo sapiens, UniProt Q13283)
Sequence of UniProt Q13283 (whole entry, looked up): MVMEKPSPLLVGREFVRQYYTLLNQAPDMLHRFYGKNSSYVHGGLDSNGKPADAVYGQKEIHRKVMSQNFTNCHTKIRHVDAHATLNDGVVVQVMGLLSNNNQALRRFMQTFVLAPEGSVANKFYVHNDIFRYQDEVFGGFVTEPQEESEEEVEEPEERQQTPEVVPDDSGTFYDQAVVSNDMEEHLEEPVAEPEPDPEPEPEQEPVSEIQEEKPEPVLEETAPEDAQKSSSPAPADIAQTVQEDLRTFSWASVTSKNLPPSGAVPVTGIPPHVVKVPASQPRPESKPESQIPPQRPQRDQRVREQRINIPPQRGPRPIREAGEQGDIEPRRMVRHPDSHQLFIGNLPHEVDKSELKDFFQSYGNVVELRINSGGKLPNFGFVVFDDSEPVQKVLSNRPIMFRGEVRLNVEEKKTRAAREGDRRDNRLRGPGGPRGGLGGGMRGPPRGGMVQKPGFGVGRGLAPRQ
Technique: RNA Bind-n-Seq
Molecule type: RNA
Matrix: in vitro
Concentration: 1 µM
Setting: whole 134-nt RNA, ends assumed
Added: 150 mM KCl
Relative to: input library
Reading: higher = stronger binding
All sequences stand within: GGGAGUUCUACAGUCCGACGAUC … UGGAAUUCUCGGGUGUCAAGG
Sequence	log2 enrichment
CAAGUCCUGUGCUACACAUCGUAUGUACCGAAUCGGGGUUUGGUUUGGGGUUUGGGAAAGUAUUAUGUUACGCCGUUCGGAUCUGCACUU	-0.00765
UAACUUUAGAGGAGGACCUGAUGGAUAUGGCAGUGGACGUGGAUUUGGGGAUGGCUAUAAUGGGUAUGGAGGAGGACCUGGAGGUGGCAA	-0.787
AGUCCUGUGCUACACAUCGUAUGUACCGAAUCGGGGAAAAGGGGAAAAGGGGAAAAGGAAAGUAUUAUGUUACGCCGUUCGGAUCUGCAC	0.136
UGAUCAGCAAAGCCAAGAUGAGCCUUUGAGAAGCAGAAAAGUGUUUGUGGGGCGCUGUACAGAGGACAUGACUGAGGAUGAGCUGCGGGA	-0.0342
AGUCCUGUGCUACACAUCGUAUGUACCGAAUCGGGAAAAAAAGGGAGGGUUUUUGGGAAAGUAUUAUGUUACGCCGUUCGGAUCUGCACU	0.559
UCAAGUCCUGUGCUACACAUCGUAUGUACCGAAUCGGAAAAAAAGGUGGUUUGGAAAGUAUUAUGUUACGCCGUUCGGAUCUGCACUUCC	-0.196
UCAAGUCCUGUGCUACACAUCGUAUGUACCGAAUCGGCCGGGCCGGGGCCGGGGAAAGUAUUAUGUUACGCCGUUCGGAUCUGCACUUCC	-1.08
UGGCCCUGGUGGCAUGCGGGGAGGAAGAGGUGGCCUCAUGGAUCGUGGUGGUACCGGUGGAAUGUUCAGAGGUGGCCGUGGUGGAGACAG	-0.0365
CUCAAGUCCUGUGCUACACAUCGUAUGUACCGAAUCGGAAGGGAAGGGGAAGGGAAAGUAUUAUGUUACGCCGUUCGGAUCUGCACUUCC	0.114
GUCCUGUGCUACACAUCGUAUGUACCGAAUCAAACCCCCAAAUUUUUUUAAACCCAAAAAAGUAUUAUGUUACGCCGUUCGGAUCUGCAC	-0.798
GUCCUGUGCUACACAUCGUAUGUACCGAAUCAAAUUUUUAAAUUUUUAAAUUUUUAAAAAAGUAUUAUGUUACGCCGUUCGGAUCUGCAC	-0.792
CUGUGCUACACAUCGUAUGUACCGAAUCGGGGAAAAAAAGGGGAAAAAAAGGGGAAAGGGGAAAGUAUUAUGUUACGCCGUUCGGAUCUG	0.44
AGUUACUCAGUUCAUUUUGGAUAACUACAUUGAAAGAGGAAAAGGAUCUGCUUGCAGAAUAGUUUGUACUCAGCCAAGAAGAAUUAGUGC	-0.256
CCUCAAGUCCUGUGCUACACAUCGUAUGUACCGAAUCGGGGAAGGAAGGAAGGAAAGUAUUAUGUUACGCCGUUCGGAUCUGCACUUCCA	-0.303

Series 5
Target: Centromere-binding protein 1, full length, His-tagged (CBF1, Saccharomyces cerevisiae, UniProt P17106, residues 1-351)
Sequence of UniProt P17106 (whole entry, looked up): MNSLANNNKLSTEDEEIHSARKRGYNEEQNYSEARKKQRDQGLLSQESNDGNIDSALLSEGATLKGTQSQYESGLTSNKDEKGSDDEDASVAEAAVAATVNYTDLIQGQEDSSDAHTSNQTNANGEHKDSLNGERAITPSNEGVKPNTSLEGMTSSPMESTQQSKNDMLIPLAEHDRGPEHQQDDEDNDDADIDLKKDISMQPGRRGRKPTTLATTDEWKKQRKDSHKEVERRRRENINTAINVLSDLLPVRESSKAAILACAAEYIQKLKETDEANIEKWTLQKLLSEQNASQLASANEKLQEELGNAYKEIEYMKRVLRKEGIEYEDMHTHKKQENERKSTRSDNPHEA
Technique: competition protein-binding microarray
Molecule type: double-stranded DNA, one strand shown
Matrix: in vitro
Concentration: 2 µM
Setting: whole 60-bp probe, lowest competitor level
Added: Pho4 competitor, 0.05 µM
Reading: higher = stronger binding
All sequences stand within: … GTCTTGATTCGCTTGACGCTGCTG
Sequence	fluorescence intensity [a.u.]
GTCTTGTCTCATTGGGGAGTGGGTGTCCCCACTTCA	100
CGTCCTAGCGATTGACCGGTGGGTGCCATGAGGAAG	67.3
CCATCAATTTGGCTACACGTGTTGGTCTAGAACATG	1440
GACAAATTAGATAATGAAAAAGATATGGGGTGGAAG	78.6
AGCGGAGTTTCGAATTCCGTGTCCTTCTGAGCGTAT	71.4
GAGCCCCGCCCCTGCCACGTGGGCTTGTTTGGGTCT	821
TGCGCAACAACTTGAACAGTGGGTGTATGTCTAGAA	69.4
GTCTTGTCTCATTTTCACGTGCTATTCCCCACTTCA	1020
CTTTCCCGATCTTGATATGTGGGTGTAGCACATTTG	80.1
CTAACGAAGGTTTGCTACGTGGGTGACAAGCCAAGT	66.9
AAAGCGGTAATTTTTCACGTGCCCTCACATATCTAT	1260
TGCGCAACAACTTTTCACGTGCTTTTATGTCTAGAA	1260
CTGGTCCTTCTTTATCACATGTCTTCATGGCTTTCA	636
CTTGAGCGAAGCCGTCACATGGACCGGGAAATGGGT	391
AACCGCAAGTATATACACGCACACACCTATCAATCA	88.2
AAATTACTAAGTTGCCGTGTGGGTGACGCCGTATGA	67
TTCATCAATGAGACTCTCGTGAAGCTTACCTTGGAG	85.8
TAACGACTGGCACCACCCGTGATGGAGAAGAACACA	112
AAATTACTAAGTTGACTGGTGGGTGACGCCGTATGA	70.7

Series 6
Target: CCNB3, cyclin fold, Cln2 fusion (human)
Technique: yeast growth competition, sequencing
Matrix: yeast
Setting: strong parent motif
Relative to: not given
Reading: higher = stronger binding
Starting sequence: E2F1 docking peptide (human); PPVKRRLDFETDH; partner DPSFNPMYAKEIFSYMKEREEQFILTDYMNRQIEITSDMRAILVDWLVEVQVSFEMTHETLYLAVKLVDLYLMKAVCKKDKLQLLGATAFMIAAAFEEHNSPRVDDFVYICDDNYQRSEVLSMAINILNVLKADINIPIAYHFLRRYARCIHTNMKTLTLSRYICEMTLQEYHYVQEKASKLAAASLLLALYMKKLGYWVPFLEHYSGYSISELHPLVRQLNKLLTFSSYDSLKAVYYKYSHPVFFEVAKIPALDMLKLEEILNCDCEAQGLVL
Substitution	normalised enrichment score
K4P	0.943
K4T	0.359
T11E	1.8
E10V	1.61
T11V	2.64
P2Y	1.85
D12T	2.83
R6G	0.316
T11N	2.41
V3M	0.546
R6M	0.741
P2C	2.21
V3G	0.0883
D8F	3.17
T11D	1.96
E10R	2.13

Some of these lines once more (series 3):
Sequence	7-mer Z-score
GUGAACA	0.108
CAUCUUG	-0.344
GACUUAC	-0.144
AGGGAGC	0.187
UCGUUGA	-0.296
UCUCAGA	-0.142
UGCAGUU	-0.179
UGGUGCC	-0.05
UUAUAGG	-0.0591
AUACUUG	-0.0917
CUGACCU	-0.217
GGUUAUC	-0.0844
UACUUUU	-0.224
UACUAGG	-0.0554
ACAAUCU	0.0424
